Measured values gathered from unrelated publications.
Every numbered part comes from another study and shows a few of its results, in no order. Several values in a cell are separate wells, animals, samples, runs or records.
UniProt P43657, sequence (whole entry, looked up): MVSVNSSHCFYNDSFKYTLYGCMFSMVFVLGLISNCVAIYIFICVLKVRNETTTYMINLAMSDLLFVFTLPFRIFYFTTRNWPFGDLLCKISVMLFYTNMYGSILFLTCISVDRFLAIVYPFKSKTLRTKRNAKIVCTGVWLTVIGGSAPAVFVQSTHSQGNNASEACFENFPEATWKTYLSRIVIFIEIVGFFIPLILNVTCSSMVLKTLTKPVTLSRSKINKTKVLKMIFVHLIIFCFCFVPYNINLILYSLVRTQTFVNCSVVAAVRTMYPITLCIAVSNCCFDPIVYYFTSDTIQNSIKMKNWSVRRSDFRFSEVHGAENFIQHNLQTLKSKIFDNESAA
UniProt Q01718, sequence (whole entry, looked up): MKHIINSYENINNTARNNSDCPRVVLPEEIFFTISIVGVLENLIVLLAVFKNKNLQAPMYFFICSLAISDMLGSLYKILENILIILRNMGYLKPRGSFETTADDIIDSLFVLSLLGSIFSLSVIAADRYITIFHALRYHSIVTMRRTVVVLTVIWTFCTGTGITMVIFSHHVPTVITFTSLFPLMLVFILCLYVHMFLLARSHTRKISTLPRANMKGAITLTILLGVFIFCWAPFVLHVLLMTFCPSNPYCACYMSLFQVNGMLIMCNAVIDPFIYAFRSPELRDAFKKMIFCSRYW
UniProt Q96RI0, sequence (whole entry, looked up): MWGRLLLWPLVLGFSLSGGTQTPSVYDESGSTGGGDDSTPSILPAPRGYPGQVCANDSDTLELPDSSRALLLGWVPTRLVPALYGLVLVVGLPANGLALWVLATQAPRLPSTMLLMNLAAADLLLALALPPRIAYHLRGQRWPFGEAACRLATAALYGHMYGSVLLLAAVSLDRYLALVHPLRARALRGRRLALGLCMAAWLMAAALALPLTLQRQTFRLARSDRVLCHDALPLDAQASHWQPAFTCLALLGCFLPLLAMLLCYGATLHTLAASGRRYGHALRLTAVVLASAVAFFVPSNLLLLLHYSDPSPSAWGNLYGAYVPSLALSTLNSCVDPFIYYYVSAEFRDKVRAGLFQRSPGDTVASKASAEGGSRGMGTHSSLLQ
UniProt O15264, sequence (whole entry, looked up): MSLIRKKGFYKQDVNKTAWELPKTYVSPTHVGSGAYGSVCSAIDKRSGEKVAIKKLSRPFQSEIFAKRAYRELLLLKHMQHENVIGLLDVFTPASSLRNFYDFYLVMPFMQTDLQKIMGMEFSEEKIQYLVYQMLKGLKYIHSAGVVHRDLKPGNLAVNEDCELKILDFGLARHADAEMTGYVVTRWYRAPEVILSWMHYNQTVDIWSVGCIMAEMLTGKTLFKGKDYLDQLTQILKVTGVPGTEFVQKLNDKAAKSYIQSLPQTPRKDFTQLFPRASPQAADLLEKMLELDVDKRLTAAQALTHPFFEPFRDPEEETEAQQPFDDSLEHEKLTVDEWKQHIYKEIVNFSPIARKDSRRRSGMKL
UniProt Q9H3N8, sequence (whole entry, looked up): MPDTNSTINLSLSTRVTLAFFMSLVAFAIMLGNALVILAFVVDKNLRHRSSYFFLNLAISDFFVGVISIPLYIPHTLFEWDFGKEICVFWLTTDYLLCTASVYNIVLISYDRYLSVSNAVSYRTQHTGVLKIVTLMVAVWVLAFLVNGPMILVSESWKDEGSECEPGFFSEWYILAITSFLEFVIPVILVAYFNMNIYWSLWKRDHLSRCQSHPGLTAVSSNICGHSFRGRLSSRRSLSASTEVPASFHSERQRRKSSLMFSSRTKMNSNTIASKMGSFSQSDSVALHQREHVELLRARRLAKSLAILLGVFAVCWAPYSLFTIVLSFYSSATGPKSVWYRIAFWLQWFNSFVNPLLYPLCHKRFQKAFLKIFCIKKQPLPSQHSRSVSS
UniProt O60331, sequence (whole entry, looked up): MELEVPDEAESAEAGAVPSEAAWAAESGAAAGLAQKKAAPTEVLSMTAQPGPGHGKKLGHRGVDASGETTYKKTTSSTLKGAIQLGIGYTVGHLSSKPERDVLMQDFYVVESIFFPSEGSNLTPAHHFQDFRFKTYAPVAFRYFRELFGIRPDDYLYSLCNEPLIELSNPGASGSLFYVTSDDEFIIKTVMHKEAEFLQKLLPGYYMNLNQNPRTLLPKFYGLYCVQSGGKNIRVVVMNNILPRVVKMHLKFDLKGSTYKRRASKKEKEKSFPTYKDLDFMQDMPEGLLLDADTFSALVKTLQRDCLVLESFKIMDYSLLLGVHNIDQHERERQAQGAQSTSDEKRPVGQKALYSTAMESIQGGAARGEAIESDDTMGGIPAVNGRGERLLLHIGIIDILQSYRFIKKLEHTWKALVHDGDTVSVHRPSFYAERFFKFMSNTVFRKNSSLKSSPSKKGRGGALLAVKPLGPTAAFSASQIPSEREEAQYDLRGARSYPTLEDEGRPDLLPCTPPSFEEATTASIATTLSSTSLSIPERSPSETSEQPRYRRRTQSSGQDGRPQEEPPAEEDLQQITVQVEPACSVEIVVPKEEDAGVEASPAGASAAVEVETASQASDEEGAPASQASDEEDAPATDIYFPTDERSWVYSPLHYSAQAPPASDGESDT
UniProt Q00535, sequence (whole entry, looked up): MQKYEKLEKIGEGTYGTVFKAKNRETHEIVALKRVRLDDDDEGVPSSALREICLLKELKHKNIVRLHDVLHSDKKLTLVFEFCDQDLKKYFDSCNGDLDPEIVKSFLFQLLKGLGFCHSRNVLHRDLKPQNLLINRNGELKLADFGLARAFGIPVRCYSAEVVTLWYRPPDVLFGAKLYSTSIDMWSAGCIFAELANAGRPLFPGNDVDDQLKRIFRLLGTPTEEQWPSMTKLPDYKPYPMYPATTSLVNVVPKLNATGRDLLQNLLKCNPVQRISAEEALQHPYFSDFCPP
UniProt P00519, sequence (whole entry, looked up): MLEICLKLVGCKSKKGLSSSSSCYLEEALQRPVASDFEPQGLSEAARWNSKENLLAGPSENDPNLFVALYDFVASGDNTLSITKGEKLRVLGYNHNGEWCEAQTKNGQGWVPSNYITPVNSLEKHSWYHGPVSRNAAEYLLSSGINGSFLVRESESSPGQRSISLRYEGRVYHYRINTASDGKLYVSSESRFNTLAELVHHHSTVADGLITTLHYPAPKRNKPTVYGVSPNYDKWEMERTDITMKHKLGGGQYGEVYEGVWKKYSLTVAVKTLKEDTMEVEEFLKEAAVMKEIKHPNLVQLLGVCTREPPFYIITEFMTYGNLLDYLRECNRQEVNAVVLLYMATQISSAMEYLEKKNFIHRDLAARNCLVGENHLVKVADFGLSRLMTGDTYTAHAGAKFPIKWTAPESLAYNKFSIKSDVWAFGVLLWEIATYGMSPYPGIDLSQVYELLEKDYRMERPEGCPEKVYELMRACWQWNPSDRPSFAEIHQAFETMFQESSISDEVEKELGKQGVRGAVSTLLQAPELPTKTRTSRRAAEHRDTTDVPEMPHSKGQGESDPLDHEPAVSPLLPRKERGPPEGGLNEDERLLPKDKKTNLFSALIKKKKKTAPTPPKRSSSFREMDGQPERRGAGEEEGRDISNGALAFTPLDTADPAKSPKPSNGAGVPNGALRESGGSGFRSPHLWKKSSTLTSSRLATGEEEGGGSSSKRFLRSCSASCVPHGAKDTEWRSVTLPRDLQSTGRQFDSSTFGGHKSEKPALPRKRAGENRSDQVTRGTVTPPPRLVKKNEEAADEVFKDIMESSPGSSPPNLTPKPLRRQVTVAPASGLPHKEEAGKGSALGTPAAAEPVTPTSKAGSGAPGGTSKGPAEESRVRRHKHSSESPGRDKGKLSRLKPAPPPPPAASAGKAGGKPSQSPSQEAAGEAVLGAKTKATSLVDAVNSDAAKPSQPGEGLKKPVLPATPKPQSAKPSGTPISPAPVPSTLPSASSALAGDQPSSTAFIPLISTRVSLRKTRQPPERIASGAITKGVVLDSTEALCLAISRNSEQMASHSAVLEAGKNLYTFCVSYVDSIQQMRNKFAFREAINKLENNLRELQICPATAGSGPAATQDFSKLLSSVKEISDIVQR
UniProt O95665, sequence (whole entry, looked up): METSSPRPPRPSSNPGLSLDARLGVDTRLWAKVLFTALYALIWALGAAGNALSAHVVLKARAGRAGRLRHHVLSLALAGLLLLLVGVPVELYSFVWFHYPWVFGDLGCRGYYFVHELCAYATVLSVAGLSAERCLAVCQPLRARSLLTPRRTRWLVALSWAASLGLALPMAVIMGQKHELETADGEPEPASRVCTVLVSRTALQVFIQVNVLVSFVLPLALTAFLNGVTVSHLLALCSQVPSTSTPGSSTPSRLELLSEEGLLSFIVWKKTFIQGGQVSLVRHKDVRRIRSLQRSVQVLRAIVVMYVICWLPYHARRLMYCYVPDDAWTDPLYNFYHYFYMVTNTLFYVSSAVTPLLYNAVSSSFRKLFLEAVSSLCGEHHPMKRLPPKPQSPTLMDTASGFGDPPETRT

Series 1
Target: Calcium/calmodulin-dependent protein kinase type II subunit alpha (CAMK2A, Homo sapiens, UniProt Q9UQM7)
UniProt Q9UQM7, sequence (whole entry, looked up): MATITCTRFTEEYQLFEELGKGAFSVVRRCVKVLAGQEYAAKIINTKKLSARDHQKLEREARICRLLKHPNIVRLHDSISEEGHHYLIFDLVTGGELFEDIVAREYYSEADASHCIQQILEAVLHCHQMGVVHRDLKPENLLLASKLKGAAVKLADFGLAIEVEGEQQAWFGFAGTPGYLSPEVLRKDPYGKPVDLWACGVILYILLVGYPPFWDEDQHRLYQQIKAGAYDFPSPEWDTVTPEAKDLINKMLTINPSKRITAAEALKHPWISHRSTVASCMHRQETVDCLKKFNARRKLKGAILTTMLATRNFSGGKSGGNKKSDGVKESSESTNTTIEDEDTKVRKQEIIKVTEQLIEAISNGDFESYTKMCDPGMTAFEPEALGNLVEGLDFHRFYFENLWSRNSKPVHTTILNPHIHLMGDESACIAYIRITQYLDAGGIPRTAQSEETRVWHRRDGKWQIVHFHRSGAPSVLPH
Read-out: enzyme activity
Mode: inhibitor
Concentration: 10 µM
| SMILES | inhibition |
| --- | --- |
| Cn1c(=O)[nH]c2[nH]cnc2c1=O | 14% |
| COc1ccccc1OC(=O)c1ccccc1OC(C)=O | -15% |
| COc1cc(/C=C/C(=O)OC[C@H]2O[C@H](O[C@]3(CO)O[C@H](CO)[C@@H](O)[C@@H]3OC(=O)/C=C/c3cc(OC)c(OC)c(OC)c3)[C@H](O)[C@@H](O)[C@@H]2O)cc(OC)c1O | -110% |
| O=c1cc(-c2ccc(O)cc2)oc2cc(O[C@@H]3O[C@H](CO)[C@@H](O)[C@H](O)[C@H]3O)cc(O)c12 | 24% |
| CC(=O)Oc1ccc(C(c2ccc(OC(C)=O)cc2)c2ccccn2)cc1 | -15% |
| Cc1c(O)c(C)c2occ(Cc3ccc4c(c3)OCO4)c(=O)c2c1O | 23% |
| COc1c(O)c(C)cc2c1C(=O)c1c(O)cccc1C2=O | 2% |
| CC(=O)OCC(=O)[C@H]1CC[C@H]2[C@@H]3CCC4=CC(=O)CC[C@]4(C)[C@H]3CC[C@]12C | -11% |
| CN(C(=O)C(Cl)Cl)c1ccc(OC(=O)c2ccco2)cc1 | -8% |

Series 2
Compound: NC(N)=NC(=O)c1nc(Cl)c(N2CCCCCC2)nc1N
Read-out: β-arrestin recruitment
Mode: agonist
Technique: PRESTO-Tango
Concentration: 10 µM
Reference: untreated
| target | fold over basal |
| --- | --- |
| Proteinase-activated receptor 4 (F2RL3, Homo sapiens, UniProt Q96RI0) | 0.41 fold |
| GPR37 (Homo sapiens, UniProt O15354) | 1.12 |
| Adrenocorticotropic hormone receptor (MC2R, Homo sapiens, UniProt Q01718) | 1.22 |
| Neurotensin receptor type 2 (NTSR2, Homo sapiens, UniProt O95665) | 0.8 |
| Histamine H4 receptor (HRH4, Homo sapiens, UniProt Q9H3N8) | 0.95 fold |
| Lysophosphatidic acid receptor 6 (Homo sapiens, UniProt P43657) | 1.43 |
| Probable G-protein coupled receptor 63 (GPR63, Homo sapiens, UniProt Q9BZJ6) | 0.66 |
| P2Y purinoceptor 12 (P2RY12, Homo sapiens, UniProt Q9H244) | 0.74 |

Series 3
SMILES: CC(C)(C(=O)O)[C@H](NC(=O)Cc1cccc(I)c1)c1ccc2oc(=O)[nH]c2c1
Technique: Incucyte 3D growth
Concentration: 30 µM
Reading: higher = more growth
| cell line | time | spheroid area |
| --- | --- | --- |
| A375 | 324.52 h | 1.75e+08 a.u. and 1.69e+08 a.u. and 1.97e+08 a.u. and 1.74e+08 a.u. and 1.93e+08 a.u. |
| MEL-JUSO | 240.52 h | 1.94e+07 a.u. and 1.5e+07 a.u. and 3.04e+07 a.u. and 1.64e+07 a.u. and 1.95e+07 a.u. and 1.63e+07 a.u. |
| NCI-H358 | 48 h | 4.01e+06 a.u. and 4.17e+06 a.u. and 4.55e+06 a.u. and 3.47e+06 a.u. and 3.87e+06 a.u. and 2.98e+06 a.u. |
| KP-4 | 48 h | 1.18e+07 a.u. and 1.31e+07 a.u. and 1.46e+07 a.u. and 1.3e+07 a.u. and 1.5e+07 a.u. and 1.43e+07 a.u. |
| KP-4 | 24 h | 1.2e+07 a.u. and 1.1e+07 a.u. and 1.04e+07 a.u. and 1.24e+07 a.u. and 1.28e+07 a.u. |
| KP-4 | 42 h | 1.47e+07 a.u. and 1.44e+07 a.u. and 1.22e+07 a.u. and 1.4e+07 a.u. and 1.24e+07 a.u. |
| MEL-JUSO | 468.52 h | 2.17e+07 a.u. and 3.14e+07 a.u. and 5.35e+07 a.u. and 2.51e+07 a.u. and 3.26e+07 a.u. and 7.72e+07 a.u. |
| A375 | 204.52 h | 1.35e+08 a.u. and 1.42e+08 a.u. and 1.5e+08 a.u. and 1.61e+08 a.u. and 1.51e+08 a.u. and 1.65e+08 a.u. |
| A375 | 300.52 h | 1.74e+08 a.u. and 1.97e+08 a.u. and 1.8e+08 a.u. and 2e+08 a.u. and 1.75e+08 a.u. |
| MEL-JUSO | 42.52 h | 8.6e+06 a.u. and 1.02e+07 a.u. and 1.34e+07 a.u. and 1.19e+07 a.u. and 1.11e+07 a.u. |
| PC-9 | 18 h | 2.64e+08 a.u. and 2.72e+08 a.u. and 2.92e+08 a.u. and 2.74e+08 a.u. and 2.7e+08 a.u. |

Series 4
SMILES: CCCOc1ccc([C@@H]2[C@@H](C(=O)O)[C@H](c3ccc4c(c3)OCO4)CN2CC(=O)Nc2c(CC)cccc2CC)cc1
Read-out: cell-free assay
Technique: competition with immobilised ligand
Concentration: 1 µM
| target | remaining binding |
| --- | --- |
| Serine/threonine-protein kinase DCLK2 (DCLK2, Homo sapiens, UniProt Q8N568) | 85% |
| Rho-associated protein kinase 1 (ROCK1, Homo sapiens, UniProt Q13464) | 81% |
| Receptor-interacting serine/threonine-protein kinase 4 (RIPK4, Homo sapiens, UniProt P57078) | 100% |
| Aurora kinase B (AURKB, Homo sapiens, UniProt Q96GD4) | 77% |
| Cyclin-dependent kinase 15 (CDK15, Homo sapiens, UniProt Q96Q40) | 93% |
| Cyclin-dependent kinase 5 (CDK5, Homo sapiens, UniProt Q00535) | 100% |
| Tyrosine-protein kinase ABL1, non-phosphorylated (ABL1, Homo sapiens, UniProt P00519) | 88% |
| Serine/threonine-protein kinase Sgk1 (SGK1, Homo sapiens, UniProt O00141) | 75% |
| Phosphatidylinositol 4,5-bisphosphate 3-kinase catalytic subunit alpha isoform (PIK3CA, Homo sapiens, UniProt P42336) | 84% |
| Activin receptor type-1B (ACVR1B, Homo sapiens, UniProt P36896) | 90% |
| Serine/threonine-protein kinase LATS1 (LATS1, Homo sapiens, UniProt O95835) | 57% |
| Mitogen-activated protein kinase 13 (MAPK13, Homo sapiens, UniProt O15264) | 100% |
| Phosphatidylinositol 4-phosphate 5-kinase type-1 gamma (PIP5K1C, Homo sapiens, UniProt O60331) | 100% |

For quick reference, copied from above (series 4):
| target | remaining binding |
| --- | --- |
| Cyclin-dependent kinase 5 (CDK5, Homo sapiens, UniProt Q00535) | 100% |
| Aurora kinase B (AURKB, Homo sapiens, UniProt Q96GD4) | 77% |
| Tyrosine-protein kinase ABL1, non-phosphorylated (ABL1, Homo sapiens, UniProt P00519) | 88% |
| Phosphatidylinositol 4,5-bisphosphate 3-kinase catalytic subunit alpha isoform (PIK3CA, Homo sapiens, UniProt P42336) | 84% |
